{"data": "Experimental data pooled from the literature", "note": "Compare with care: the assays were run in different laboratories. Several values in a cell are separate wells, animals, samples, runs or records. Numbers after ± are the reported error."}
{"SMILES": "Nc1ccc(Cl)c2cccnc12", "cell line": "HUVEC", "assay": "cell proliferation, [3H]thymidine incorporation", "IC50": "721 ± 300 nM"}
{"SMILES": "CN1c2ccc(F)cc2C(=O)N2CCc3c([nH]c4ccc(OCc5cccc(C(=O)NO)c5)cc34)C21 (stereo not shown)", "cell line": "HCT-116", "assay": "cell viability, CCK-8", "IC50": "> 20000 nM"}
{"SMILES": "CC(C)[C@H](N)c1nc2cc(-c3ccncc3)sc2c(=O)[nH]1", "cell line": "COLO 205", "assay": "cell growth, MTT", "IC50": "39.6 ± 1.58 nM"}
{"SMILES": "COc1ccc(CC(=O)OCc2ccc(-n3cccn3)cc2)cc1F", "cell line": "HS27", "assay": "cytotoxicity", "IC50": "> 100000 nM"}
{"SMILES": "NS(=O)(=O)c1ccc(Cc2c(-c3ccc(F)c(/C=C/C4CCCC4)c3)nn(-c3nc(C(=O)O)cs3)c2CC2CC2)cc1F", "cell line": "HEK293T", "assay": "lactate production", "setting": "1 h", "IC50": "100 nM"}
{"SMILES": "CC[C@@H](C)[C@H](N)C(=O)N1Cc2ccc(F)cc2C1", "cell line": "OCI-AML2", "assay": "cell viability, CellTiter-Glo", "IC50": "20 nM"}
{"SMILES": "O=C(O)c1csc(-n2nc(-c3ccccc3)cc2C(F)(F)F)n1", "cell line": "HEK293T", "assay": "lactate production", "setting": "1 h", "IC50": "> 50000 nM"}
{"SMILES": "CC(=NN=c1[nH]c2cc(F)c(F)cc2n1C)c1ccc(F)cn1", "cell line": "MCF7", "assay": "viability, MTT", "setting": "72 h", "IC50": "7.5 nM and 7 nM"}
{"SMILES": "CN(C)C(=O)Cn1cc(-c2ccc(-c3cncc4ccncc34)cc2)cn1", "cell line": "MM.1R", "assay": "cell growth, viability", "IC50": "< 1000 nM"}
{"SMILES": "CCN1c2ccccc2C(=O)N(C)c2cnc(Nc3ccc(C(=O)N4CCC(N5CCN(C)CC5)CC4)cc3OC)nc21", "cell line": "797 NUT midline carcinoma cells", "assay": "viability, CellTiter-Glo", "setting": "3 days", "IC50": "2620 ± 540 nM"}
{"SMILES": "O=C(O)CCCN1C(=O)c2ccc3c4c(ccc(c24)C1=O)C(=O)N(c1cc(C(=O)O)ccc1O)C3=O", "cell line": "PC-12", "assay": "neurite outgrowth", "setting": "72 h, added: 500 pM NGF", "IC50": "5450 nM"}
{"SMILES": "CC(C)[C@H](N)c1nc2cc(-c3c[nH]cn3)sc2c(=O)[nH]1", "cell line": "COLO 205", "assay": "cell growth, MTT", "IC50": "> 10000 nM"}
{"SMILES": "NS(=O)(=O)c1ccc(Oc2c(-c3cccc(-c4ccccc4)c3)nn(-c3nc(C(=O)O)cs3)c2C2CC2)cc1", "cell line": "HEK293T", "assay": "lactate production", "setting": "1 h", "IC50": "2600 nM"}
{"SMILES": "COc1cccc2c1C(=O)N1CCc3c([nH]c4ccccc34)C1N2Cc1ccc(C(=O)NCCCC(=O)NO)cc1 (racemic)", "cell line": "A549", "assay": "cell viability, CCK-8", "IC50": "> 10000 nM"}
{"SMILES": "CCOc1cc(C(C)(C)C)ccc1C1=N[C@@H](c2ccc(Cl)cc2)[C@@H](c2ccc(Cl)cc2)N1C(=O)N1CCN(CC(=O)NCCOCCOCCOCCNC(=O)CN2CCN(C(=O)N3C(c4ccc(C(C)(C)C)cc4OCC)=N[C@H](c4ccc(Cl)cc4)[C@@H]3c3ccc(Cl)cc3)CC2=O)C(=O)C1", "cell line": "HCT-116 p53 knock-out", "assay": "cell growth, CCK-8", "IC50": "> 50000 nM"}
{"SMILES": "CN1CCN(c2cc(C(=O)Nc3ccc4c(c3)-c3c(c(C(N)=O)nn3-c3ccc(F)cc3)CC4)c(Cl)cn2)CC1", "cell line": "human PBMC", "assay": "TNF-α production, MSD", "setting": "2 h pretreatment, LPS for 18 h, added: LPS 10 ng/mL", "IC50": "40 to 70 nM"}
{"SMILES": "Cc1ccc2oc(-c3c4c(N)n[nH]c(=O)c4nn3-c3ccc(S(C)(=O)=O)cc3)c(C)c2c1", "cell line": "SNU-16 (FGFR2 amplified)", "assay": "cell proliferation", "IC50": "> 1000 nM"}
{"SMILES": "Cc1ccccc1OCCCSCc1nc2ccccc2[nH]1", "cell line": "SW620-GFP organoids", "assay": "reporter gene, refers to: vimentin-GFP reporter", "scale": "downregulation", "IC50": "> 40000 nM"}
{"SMILES": "CC[C@H](N)c1nc2cc(-c3ccncc3F)sc2c(=O)[nH]1", "cell line": "COLO 205", "assay": "cell growth, MTT", "IC50": "67.3 ± 3.36 nM"}
{"SMILES": "O=C(O)c1ccc(Cl)c(N2C(=O)c3ccc4c5c(ccc(c35)C2=O)C(=O)N(c2cc(C(=O)O)ccc2Cl)C4=O)c1", "cell line": "PC-12", "assay": "neurite outgrowth", "setting": "72 h, added: 500 pM NGF", "IC50": "16900 nM"}
{"SMILES": "C=CC(=O)N1CCC(c2cc(Nc3cc4n(n3)CCOC4)c3ncnn3c2)C1 (single isomer, unassigned)", "cell line": "Ramos", "assay": "calcium flux, FLIPR", "setting": "1 h preincubation, added: anti-IgM", "IC50": "> 1000 nM"}
{"SMILES": "NS(=O)(=O)c1ccc(Cc2c(-c3ccc(F)c(C4CCCCC4)c3)nn(-c3nc(C(=O)O)cs3)c2CC2CC2)cc1F", "cell line": "HEK293T", "assay": "lactate production", "setting": "1 h", "IC50": "400 nM"}
{"SMILES": "CC[C@H](N)c1nc2cc(-c3ccnc(F)c3)sc2c(=O)[nH]1", "cell line": "COLO 205", "assay": "cell growth, MTT", "IC50": "103 ± 3.07 nM"}
{"SMILES": "COc1cc2nccc(Oc3ccc(NC(=S)NC4CCC4)c(Cl)c3)c2cc1C(N)=O", "cell line": "HUVEC", "assay": "cell proliferation, luminescent viability", "setting": "72 h, added: 20 ng/mL VEGF-A", "IC50": "20.7 nM"}
{"SMILES": "COc1cc(N)c2ncccc2c1Cl", "cell line": "HUVEC", "assay": "cell proliferation, [3H]thymidine incorporation", "IC50": "> 20000 nM"}
{"note": "Some of these lines once more:"}
{"SMILES": "CC(C)[C@H](N)c1nc2cc(-c3ccncc3)sc2c(=O)[nH]1", "cell line": "COLO 205", "assay": "cell growth, MTT", "IC50": "39.6 ± 1.58 nM"}
{"SMILES": "COc1ccc(CC(=O)OCc2ccc(-n3cccn3)cc2)cc1F", "cell line": "HS27", "assay": "cytotoxicity", "IC50": "> 100000 nM"}
{"SMILES": "NS(=O)(=O)c1ccc(Cc2c(-c3ccc(F)c(/C=C/C4CCCC4)c3)nn(-c3nc(C(=O)O)cs3)c2CC2CC2)cc1F", "cell line": "HEK293T", "assay": "lactate production", "setting": "1 h", "IC50": "100 nM"}
